# Published values collected from several papers.
# Lines come from different studies, so protocols differ. ± gives the spread as reported.
SMILES,cell line,assay,conditions,scale,endpoint,result
CC(=O)c1c(C)c2cnc(Nc3ccc(N4CCNCC4)cn3)nc2n(C2CCCC2)c1=O,recombinant CHO cell line,PI flow cytometry,"concentration not given, 24 h",,G0/G1 arrested cells,96%
COc1cc(CNC(=O)C[C@H](C)CCC=C(C)C)ccc1O,SK-MEL-28 melanoma cells,SRB,"10 µM, 48 h",,growth percent,106%
FC(F)(F)c1ccnc(-c2cc(C(F)(F)F)ccn2)c1.FC(F)(F)c1ccnc(-c2cc(C(F)(F)F)ccn2)c1.[Cl-].[Cl-].[Ru+2].c1csc(-c2ccc(-c3ccc(-c4nc5c6cccnc6c6ncccc6c5[nH]4)s3)s2)c1,SK-MEL-28,cell viability,"hypoxia, with: green light 523 nm",baseline: dark EC50 over light EC50,phototherapeutic index,180
COc1ncccc1CN(C(=O)OC(c1ccc([N+](=O)[O-])cc1)C(F)(F)F)[C@H]1C[C@@H]1c1ccccc1 (mixture of isomers),THP-1 cells,colony forming unit,,baseline: EC50 wild type over NTR-expressing,selectivity ratio,1 ± 1
O=Cc1c(O)ccc2ccccc12,HUVEC,RNA sequencing,"75 µM, 24 h, ≥2.5-fold change",baseline: vehicle,differentially expressed genes,457 genes
CCOC(=O)C(Cc1cccc(O)c1)OC(=O)C=Cc1ccc(O)c(O)c1C=Cc1ccc(O)c(O)c1 (stereo not drawn),human vascular smooth muscle cells,,10 µM,,transgelin-actin co-localization,83%
COc1cc(/C=C/C(=O)/C=C(O)/C=C/c2ccc(OCC(=O)N3CCOCCOCCOCCOCC3)c(OC)c2)ccc1OCC(=O)N1CCOCCOCCOCCOCC1,SK-LU-1,"cell growth or viability, SRB",5 µM,,inhibition,20.8%
CCOC(=O)C1NC(c2ccc[n+](C)c2)C23c4c5c6c7c8c9c(c%10c%11c2c2c4c4c%12c5c5c6c6c8c8c%13c9c9c%10c%10c%11c%11c2c2c4c4c%12c%12c5c5c6c8c6c8c%13c9c9c%10c%10c%11c2c2c4c4c%12c5c6c5c8c9c%10c2c45)C713 (stereo not drawn),BC-2,cell growth or viability,24 h,,CC50,5.9 µM
C=CC(OC(C)=O)c1cc(OC)c(OC(C)=O)c(OC)c1 (stereo not drawn),MDA-MB-231,Western blot,"IC50, 24 h",baseline: untreated,p53 protein level,2.3 fold
O=C1OCC2=C1C(c1cccc(Br)c1)C1=C(N2)C(=O)c2ccccc2C1=O (stereo not drawn),SK-LU-1 cells,annexin V/PI,"0.08 µM, 24 h",,late apoptotic cells,1.99%
COc1cc(CNC(=O)C[C@H](C)CCC=C(C)C)ccc1OCc1cn(-c2cccc(Cl)c2)nn1,NCI/ADR-RES,SRB,"10 µM, 48 h",,growth,99.2%
Cc1sc2ncn(CC(=O)N3CCCC3)c(=O)c2c1-c1cccc(Br)c1,mouse cultured cortical neurons,measured: intracellular Ca2+,"50 µM, with: A23187 10 µM",,calcium signal increase,no effect
